{"data": "Measured values of several laboratories", "note": "Numbered parts are unrelated; each lists some results of a single study."}
{"data": "Study 1", "target": "Interferon regulatory factor 7, full length, phosphomimetic (IRF7, Homo sapiens, UniProt Q92985, residues 1-503, S101K/S471D/S472D/S475D/S476D/S477D/S483D/S484D/S487D)", "technique": "protein-binding microarray", "form": "double-stranded DNA, one strand shown", "medium": "in vitro", "tested at": "250 nM", "setting": "60-bp whole probe", "with": "salmon DNA 0.4 mg/ml", "relative to": "random background probes", "direction": "higher = stronger binding", "constant ends, left off below": "GCCTAGCAC … GTCTTGATTCGCTTGACGCTGCTG", "Construct (chain)": "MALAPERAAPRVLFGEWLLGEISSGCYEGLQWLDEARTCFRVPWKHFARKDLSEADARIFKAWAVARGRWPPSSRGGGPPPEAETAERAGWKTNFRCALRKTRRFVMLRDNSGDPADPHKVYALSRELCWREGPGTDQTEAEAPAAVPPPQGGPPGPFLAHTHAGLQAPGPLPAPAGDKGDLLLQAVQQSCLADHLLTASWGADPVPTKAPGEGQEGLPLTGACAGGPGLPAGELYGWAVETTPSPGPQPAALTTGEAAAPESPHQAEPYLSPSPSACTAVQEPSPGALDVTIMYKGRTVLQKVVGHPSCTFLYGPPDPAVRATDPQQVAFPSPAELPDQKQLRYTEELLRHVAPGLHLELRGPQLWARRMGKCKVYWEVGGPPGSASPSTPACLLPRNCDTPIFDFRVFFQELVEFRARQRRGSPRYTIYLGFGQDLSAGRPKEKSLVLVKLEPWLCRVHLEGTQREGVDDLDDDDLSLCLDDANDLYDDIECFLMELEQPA"}
{"Strand": "TTTGGTTTCTGGTTTATTGAGTGCTAG", "log fluorescence [z-score]": 5.99}
{"Strand": "TTAGGTATCCTTTTACTTTAGTGCTAG", "log fluorescence [z-score]": 1.55}
{"Strand": "TTAGAACTGGGGACTGGTTTAGTGCTA", "log fluorescence [z-score]": -0.116}
{"Strand": "TCAAGTTGTACTTTCTAACTGTGCTAG", "log fluorescence [z-score]": 0.234}
{"Strand": "GACGGTTTCGGTTCCGGAACGTGCTAG", "log fluorescence [z-score]": 13.2}
{"Strand": "GAGGGTTTCGGTATCGGGACGTGCTAG", "log fluorescence [z-score]": 7.95}
{"Strand": "TTATGTTTCCTTTCCCTTTAGTGCTAG", "log fluorescence [z-score]": 2.96}
{"Strand": "TACGGTATCGGGTTTCGGGACGTGCTA", "log fluorescence [z-score]": 3.43}
{"Strand": "TTAGATTTCAGTATCAATTAGTGCTAG", "log fluorescence [z-score]": 0.626}
{"Strand": "GACGGTCTCGTTATCGGGACGTGCTAG", "log fluorescence [z-score]": 2.28}
{"Strand": "TTAGAACTGGGCTATCGATTAGTGCTA", "log fluorescence [z-score]": -0.64}
{"Strand": "CTTTCTTTATGTACTCTCTCCGTGCTA", "log fluorescence [z-score]": 1.58}
{"Strand": "TTAGGTTTCGACACTAGGTTAGTGCTA", "log fluorescence [z-score]": 3.72}
{"Strand": "TTAGGTTTCCTTCTCCTTTGGTGCTAG", "log fluorescence [z-score]": 2.38}
{"Strand": "TTAGAGATCAGACTGGATTAGTGCTAG", "log fluorescence [z-score]": -0.668}
{"Strand": "TTAGGAATGCTACTGCTTTAGTGCTAG", "log fluorescence [z-score]": -0.154}
{"Strand": "GACGGACCGCTTTTCCTGACGTGCTAG", "log fluorescence [z-score]": 0.878}
{"Strand": "GACGGCATCCTTTTCCTGACGTGCTAG", "log fluorescence [z-score]": -0.269}
{"Strand": "GAGGGACTGGACTATCGGGACGTGCTA", "log fluorescence [z-score]": -0.814}
{"data": "Study 2", "target": "RNA binding protein fox-1 homolog 2, RRM domain, GST-SBP tag (RBFOX2, Homo sapiens, UniProt O43251-10, residues 100-194)", "technique": "RNA Bind-n-Seq", "form": "RNA", "medium": "in vitro", "tested at": "365 nM", "setting": "natural RNA segment, single round, ends assumed", "relative to": "no-protein control", "direction": "higher = stronger binding", "Target sequence (chain)": "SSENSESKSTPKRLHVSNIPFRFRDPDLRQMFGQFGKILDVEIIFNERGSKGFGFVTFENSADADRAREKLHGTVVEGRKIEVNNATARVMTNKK"}
{"Strand": "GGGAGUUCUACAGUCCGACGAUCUUUUUUCUAGCUGAGAAUUAAUAAUGGUCUUUCUCUUUGGAAGUCAUAUCAAAGUAUAAUUGAUGGGGGCCUUGUUUUGUUUUGUUUUGGUUUUUGGAGACAGGGUCUCAUGGAAUUCUCGGGUGCCAA", "RBNS enrichment (R)": 2.29}
{"Strand": "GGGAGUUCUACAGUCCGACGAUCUCCUUUAUUUCAUAAGUUCAGAUCAUCUUAAAUGAAAAUGCCAUGAUUAUCUGCAGUUAAGUAGAUGACAGCUAUUCUACAUCAGACUUGAUUUUUGUCAGCUAAUUACAUGGAAUUCUCGGGUGCCAA", "RBNS enrichment (R)": 0.957}
{"Strand": "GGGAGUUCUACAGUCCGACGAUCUGUAUUUGCUAUUGUUUUGAAAGUGCUGACAAAGUUUAUAUUUGUAACAUCAGCCUUCCUCGCCCAUCUCUUUCCAUCUGUCUCUUCUUCAUUAAACACUUACUGAGUAUUGGAAUUCUCGGGUGCCAA", "RBNS enrichment (R)": 0.762}
{"Strand": "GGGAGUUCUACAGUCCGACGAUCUCUCAGCGCUUGAGGAGUGCUGCCUGAUUCUUCUGCAAGCCCCACUGGGAGCCACCACCUCCGGCUCCUGGGUGACUUUACACCUAGAUGCUCCGAGAGCUACUGCAUCUUGGAAUUCUCGGGUGCCAA", "RBNS enrichment (R)": 0.619}
{"Strand": "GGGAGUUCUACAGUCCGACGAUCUAUUUAAGGUGAAAGCAUUUGACCCAGGGUGUCUUCAUCUUCAAUUUGGGUUUAAUGUUAUAGAAAUAAAUGAUGAUAAACUCUAACUAAUAAAGGAAAGAGAAUAUUUGUGGAAUUCUCGGGUGCCAA", "RBNS enrichment (R)": 0.33}
{"Strand": "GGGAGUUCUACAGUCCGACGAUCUCCUCAGCCUUCUGGCGGGAGCCCUGAGGCUGCGGACAAAGCCCUUUCAUCUGAGGACUUUCAUCUGUGCAUAUCACGGCCCCCCAGGGCAGUUCCUGCUGGACCAGACUUGGAAUUCUCGGGUGCCAA", "RBNS enrichment (R)": 0.182}
{"Strand": "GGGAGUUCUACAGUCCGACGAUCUUACACUGAUCUUGUUCCACUGAUUACUCUCUCUGACGAGUCCAUCACCUGCAACUUAAAUGAACAAGCUUACAUCCCAUUUUGAGUGAAGAUUUUGAGGUUUUUAAUUUUGGAAUUCUCGGGUGCCAA", "RBNS enrichment (R)": 0.634}
{"Strand": "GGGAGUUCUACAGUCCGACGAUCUUAAAGUCUACCUUUUAACAAUCUUUACCCCAAACCUAAAGAUUCUAGGGGUCACUUAUCUCUAUUACGUAAUCUAACUGGAAUAAUUUCCUAGAAUUCUUACUAGUGAAUGGAAUUCUCGGGUGCCAA", "RBNS enrichment (R)": 0.524}
{"data": "Study 3", "Substance": "PhoQ, residues 284 288 289 292 302 303 GLASVI", "technique": "Sort-seq", "item": "YFP reporter", "medium": "E. coli", "setting": "PhoQ-PhoP variant library", "with": "10 µM Mg2+", "relative to": "high Mg2+ state", "direction": "higher = stronger signaling"}
{"target": "PhoP, residues 12 14 15 18 19 SHWTV (Escherichia coli, UniProt P23836)", "fold induction": 17.7}
{"target": "PhoP, residues 12 14 15 18 19 STHWV (Escherichia coli, UniProt P23836)", "fold induction": 2.18}
{"target": "PhoP, residues 12 14 15 18 19 QYCSL (Escherichia coli, UniProt P23836)", "fold induction": 4.81}
{"data": "Study 4", "target": "Sal-like protein 4, full length isoform A (SALL4, Homo sapiens, UniProt Q9UJQ4, residues 1-1053)", "technique": "universal PBM", "form": "double-stranded DNA, one strand shown", "medium": "in vitro", "tested at": "600 nM", "setting": "8-mer, flanks averaged, mean of replicates", "direction": "higher = stronger binding", "chain of UniProt Q9UJQ4 (whole entry, looked up)": "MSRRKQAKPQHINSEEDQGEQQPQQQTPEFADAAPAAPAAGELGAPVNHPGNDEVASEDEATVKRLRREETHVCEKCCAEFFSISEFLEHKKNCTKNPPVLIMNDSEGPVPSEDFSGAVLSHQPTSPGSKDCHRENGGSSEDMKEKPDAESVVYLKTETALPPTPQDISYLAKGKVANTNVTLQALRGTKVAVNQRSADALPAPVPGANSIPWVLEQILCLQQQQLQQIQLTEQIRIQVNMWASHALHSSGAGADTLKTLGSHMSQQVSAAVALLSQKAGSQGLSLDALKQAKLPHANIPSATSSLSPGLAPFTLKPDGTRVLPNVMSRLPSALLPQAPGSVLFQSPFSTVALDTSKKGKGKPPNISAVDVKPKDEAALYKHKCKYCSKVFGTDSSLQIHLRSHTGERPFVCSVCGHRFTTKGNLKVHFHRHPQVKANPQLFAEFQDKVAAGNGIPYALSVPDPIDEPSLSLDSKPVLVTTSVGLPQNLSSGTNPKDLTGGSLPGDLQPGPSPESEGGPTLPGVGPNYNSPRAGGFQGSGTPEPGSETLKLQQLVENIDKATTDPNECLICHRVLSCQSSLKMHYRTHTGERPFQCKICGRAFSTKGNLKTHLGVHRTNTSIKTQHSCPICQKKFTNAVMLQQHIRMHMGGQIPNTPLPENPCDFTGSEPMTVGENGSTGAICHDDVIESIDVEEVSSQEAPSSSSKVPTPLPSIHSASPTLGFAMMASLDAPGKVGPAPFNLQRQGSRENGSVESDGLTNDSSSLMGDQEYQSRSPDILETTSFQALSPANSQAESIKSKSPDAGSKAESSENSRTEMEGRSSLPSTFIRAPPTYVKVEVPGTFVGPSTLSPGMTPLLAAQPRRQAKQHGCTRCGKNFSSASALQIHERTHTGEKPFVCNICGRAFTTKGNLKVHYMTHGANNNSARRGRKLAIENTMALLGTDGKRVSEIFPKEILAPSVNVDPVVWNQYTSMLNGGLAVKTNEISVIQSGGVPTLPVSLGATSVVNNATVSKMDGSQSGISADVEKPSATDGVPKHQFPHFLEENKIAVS"}
{"Strand": "CACACTCA", "E-score": 0.264}
{"Strand": "CGGCTAAA", "E-score": -0.00423}
{"Strand": "CAGCCTCA", "E-score": -0.16}
{"Strand": "CGGCGCGA", "E-score": -0.0702}
{"Strand": "ACTATCCG", "E-score": -0.0597}
{"Strand": "CCACTAGA", "E-score": -0.114}
{"Strand": "TAACTGGA", "E-score": 0.139}
{"Strand": "ATCGAGCC", "E-score": -0.0475}
{"Strand": "AGCGAGTC", "E-score": -0.197}
{"Strand": "CAGCGCTC", "E-score": -0.151}
{"Strand": "AAGGGACT", "E-score": -0.0122}
{"Strand": "AGTTATAA", "E-score": 0.385}
{"Strand": "AGATCCGA", "E-score": -0.0423}
{"Strand": "ATGCGGGA", "E-score": 0.0358}
{"Strand": "AACAAGTT", "E-score": 0.106}
{"Strand": "CTTTATCA", "E-score": 0.251}
{"Strand": "CACTTGCC", "E-score": -0.156}
{"Strand": "CCCCAAGC", "E-score": -0.191}
{"Strand": "ATTTAGTA", "E-score": 0.351}
{"Strand": "CGTGATGA", "E-score": 0.000945}
{"Strand": "ACCAACGT", "E-score": -0.0108}
{"Strand": "ACGGACTC", "E-score": -0.229}
{"Strand": "CCAATTAA", "E-score": 0.195}
{"Strand": "ATTGGATG", "E-score": 0.172}
{"Strand": "CCTGCGCC", "E-score": -0.248}
{"note": "Some of these lines once more (study 4):"}
{"Strand": "AGATCCGA", "E-score": -0.0423}
{"Strand": "CCCCAAGC", "E-score": -0.191}
{"Strand": "ACGGACTC", "E-score": -0.229}
{"Strand": "ACTATCCG", "E-score": -0.0597}
{"Strand": "CTTTATCA", "E-score": 0.251}
